Literature values, collected from citations in different studies.
Each numbered part shows a few of the values that one paper quotes.

Sample 1
Target: dopamine transporter
| Compound | IC50 [nM] |
| --- | --- |
| C[C@H]1C[C@@H]2[C@H]([C@@H](O)C[C@@]3(C)[C@H]2CC[C@]3(O)C(=O)CO)[C@@]2(C)C=CC(=O)C=C12 | > 10000 |
| CCC(C)n1ncn(-c2ccc(N3CCN(c4ccc(OCC5COC(Cn6cncn6)(c6ccc(Cl)cc6Cl)O5)cc4)CC3)cc2)c1=O (stereo not drawn) | > 10000 |
| Cc1nccn1CC1CCc2c(c3ccccc3n2C)C1=O (stereo not drawn) | > 10000 |

Sample 2
Compound: CCCCCCCCNC(C)C(O)c1ccc(SC(C)C)cc1 (stereo not drawn)
Cell line: MCF7
Method: microarray
Concentration: concentration not given
| refers to | relative to | fold change |
| --- | --- | --- |
| ISG20 mRNA (probe 33304_at) | vehicle (DMSO) | 2.23 |
| SYNGR3 mRNA | DMSO | 1.94 |
| MAFF mRNA (probe 36711_at) | vehicle (DMSO) | 14 |

Sample 3
Organism: Cryptosporidium parvum
Method: high-throughput screen
Concentration: concentration not given
| Compound | activity |
| --- | --- |
| CC[N+](C)(C)c1cccc(O)c1 | inactive |
| CC(Cc1ccccc1)(NC(=O)CN)c1ccccc1.Cl (stereo not drawn) | inactive |
| CNS(=O)(=O)Cc1ccc2[nH]cc(CCN(C)C)c2c1 | inactive |
| CC(C)NCC(O)c1ccc(O)c(O)c1.Cl (stereo not drawn) | inactive |
| C[C@@](Cc1ccc(O)c(O)c1)(NN)C(=O)O | inactive |
| O=C1[C@H](CC[C@H](O)c2ccc(F)cc2)[C@@H](c2ccc(O)cc2)N1c1ccc(F)cc1 | inactive |
| CN1CCC(=C2c3ccccc3C=Cc3ccccc32)CC1 | inactive |
| O=C(O)C[C@H](O)C[C@H](O)/C=C/c1c(C2CC2)nc2ccccc2c1-c1ccc(F)cc1 | inactive |
| CN(Cc1cnc2nc(N)nc(N)c2n1)c1ccc(C(=O)N[C@@H](CCC(=O)O)C(=O)O)cc1.O | inactive |
| OC(CCN1CCCC1)(c1ccccc1)C1CCCCC1 (stereo not drawn) | inactive |
| NS(=O)(=O)c1cc2c(cc1C(F)(F)F)NCNS2(=O)=O | inactive |
| Cc1ncc([N+](=O)[O-])n1CC(C)O (stereo not drawn) | inactive |
| CCCC(CCC)C(=O)O | inactive |
| CN(C)CCC=C1c2ccccc2COc2ccccc21 | inactive |
| COc1cccc2c1C(=O)c1c(O)c3c(c(O)c1C2=O)C[C@@](O)(C(=O)CO)C[C@@H]3O[C@H]1C[C@H](N)[C@H](O)[C@H](C)O1 | inactive |
| CN(C)CCN(Cc1ccccc1)c1ccccn1 | inactive |
| COC(=O)C1=C(C)NC(C)=C(C(=O)OC(C)C)C1c1cccc2nonc12 (stereo not drawn) | inactive |
| Nc1nc(N)nc(-c2cc(Cl)ccc2Cl)n1 | inactive |
| COC1=C(OC)C(=O)C(CCCCCCCCCCO)=C(C)C1=O | inactive |
| CCCCNc1cc(C(=O)O)cc(S(N)(=O)=O)c1Oc1ccccc1 | inactive |
| C=CC1=C(C(=O)O)N2C(=O)[C@@H](NC(=O)/C(=N\O)c3csc(N)n3)[C@H]2SC1 | inactive |
| Clc1ccc2c(c1)C(N1CCNCC1)=Nc1ccccc1O2 | inactive |
| CN1CCN(CCCN2c3ccccc3Sc3ccc(C(F)(F)F)cc32)CC1 | inactive |
| CC(C[N+](C)(C)C)OC(N)=O (stereo not drawn) | inactive |
| Nc1ncnc2c1ncn2[C@@H]1O[C@H](CO)[C@@H](O)[C@@H]1O | inactive |

Sample 4
Method: PAMPA
| SMILES | log permeability (Pe) |
| --- | --- |
| COCC(=O)OCCCCCC(=O)N[C@H](C(=O)N1C[C@H](O)C[C@H]1C(=O)NCc1ccc(-c2scnc2C)cc1)C(C)(C)C | -6.15 |
| CCCC(=O)NCCCCCC(=O)N[C@H](C(=O)N1C[C@H](O)C[C@H]1C(=O)NCc1ccc(-c2scnc2C)cc1)C(C)(C)C | -7 |
| Cc1ncsc1-c1ccc(CNC(=O)[C@@H]2C[C@@H](O)CN2C(=O)[C@@H](NC(=O)CCCCCNC(=O)C2CCCCC2)C(C)(C)C)cc1 | -5.96 |

Other studies, line by line
DDR1: Epithelial discoidin domain-containing receptor 1 (DDR1, Homo sapiens, UniProt Q08345)
Sequence of UniProt Q08345 (whole entry, looked up): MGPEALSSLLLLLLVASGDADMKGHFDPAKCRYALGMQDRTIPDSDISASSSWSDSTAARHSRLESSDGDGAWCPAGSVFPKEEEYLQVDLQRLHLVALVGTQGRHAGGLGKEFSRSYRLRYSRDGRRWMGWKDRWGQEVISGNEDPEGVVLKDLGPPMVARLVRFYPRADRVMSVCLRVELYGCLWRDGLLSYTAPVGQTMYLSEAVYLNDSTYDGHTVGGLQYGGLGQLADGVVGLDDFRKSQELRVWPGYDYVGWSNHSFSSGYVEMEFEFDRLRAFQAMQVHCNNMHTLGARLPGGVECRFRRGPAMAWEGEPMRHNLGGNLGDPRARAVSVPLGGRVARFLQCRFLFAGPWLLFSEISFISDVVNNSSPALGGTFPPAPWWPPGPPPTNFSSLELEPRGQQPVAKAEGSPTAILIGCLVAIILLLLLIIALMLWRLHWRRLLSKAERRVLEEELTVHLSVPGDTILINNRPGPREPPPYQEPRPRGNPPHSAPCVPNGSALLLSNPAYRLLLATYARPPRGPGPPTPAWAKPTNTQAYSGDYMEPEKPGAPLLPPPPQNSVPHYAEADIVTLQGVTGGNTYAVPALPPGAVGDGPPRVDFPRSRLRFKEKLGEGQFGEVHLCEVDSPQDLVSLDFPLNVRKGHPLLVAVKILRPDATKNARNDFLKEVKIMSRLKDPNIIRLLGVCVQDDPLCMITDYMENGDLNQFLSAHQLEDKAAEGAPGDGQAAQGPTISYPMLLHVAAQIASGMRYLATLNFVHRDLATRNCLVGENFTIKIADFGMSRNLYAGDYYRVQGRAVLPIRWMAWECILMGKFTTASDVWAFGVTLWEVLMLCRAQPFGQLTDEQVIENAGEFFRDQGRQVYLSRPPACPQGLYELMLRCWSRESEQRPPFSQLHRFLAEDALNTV
| Structure (SMILES) | tested on | test | test system | conditions | scale | measurement | value |
| --- | --- | --- | --- | --- | --- | --- | --- |
| O=C(O)[C@H]1/C(=C/CO)O[C@@H]2CC(=O)N21 |  |  | human adults | oral |  | oral bioavailability | 60% |
| O=C1NC(=O)C(c2cn(-c3ccccc3)nc2-c2ccc(F)cc2)N1 (stereo not drawn) | BCR-ABL1 | ABL1 kinase activity |  |  |  | EC50 | 1140 nM |
| CN(C)C(=O)Cn1cc(-c2nc([C@@](C)(c3ccc(-c4cnc(N)nc4)cc3)C3CC3)no2)cn1 | ALOX5AP | biochemical activity |  |  |  | IC50 | 1.7 nM |
| Cc1cc2c(C(N)=O)c(N)n(-c3c(C)ccc(O)c3C)c2nc1C |  |  | HCC1569 xenograft, mouse | 15 mg/kg |  | tumour growth inhibition | 79% |
| C#C[C@]1(O)CC[C@H]2[C@@H]3CCc4cc(O)ccc4[C@H]3CC[C@@]21C |  |  | human, fed | 0.02 mg, single dose |  | Cmax, mean | 0.0365 ng/mL |
| CNc1ccc(-c2nc3ccc(O)cc3s2)cc1 | amyloid fibrils |  |  |  | relative to: over thioflavin T | affinity | ~300 fold |
| CN(C)CC#Cc1ccc(OCCCc2sc(N3CCc4cccc(C(=O)Nc5nc6ccccc6s5)c4C3)nc2C(=O)O)c(F)c1 | BCL2L1 | cell-based |  |  |  | EC50 | 70 nM |
| Cc1cc(C)c(-n2ccn3nc(-c4cccnc4)cc23)cc1NC(=O)c1cc(C#N)cc(S(F)(F)(F)(F)F)c1 | DDR1 | target binding, NanoBRET |  |  |  | IC50 | 1.5 nM |
| CCOCCn1cc(C(=O)Nc2ccc(-n3nc(-c4cccnc4)cc3C(F)(F)F)cn2)ccc1=O | EPHX2 | cellular activity |  |  |  | IC50 | < 1 nM |
| Cc1ccc(C(=O)Nc2cccc(C(F)(F)F)c2)cc1Nc1cncc(C(N)=O)c1 | DDR1 | enzyme activity, radiometric |  |  |  | IC50 | 19 nM |
| CCNCCc1ccc(CN(CC)c2cc(OC)ccc2[C@@H]2CCc3cc(O)ccc3C2)cc1 |  | local investigator assessed | human, ER-positive HER2-negative breast cancer | dose not given |  | objective response rate | 6.9% |
| CCN1CCN(Cc2ccc(C(=O)Nc3ccc(C)c(Oc4ccc5c(c4)CC(=O)N5)c3)cc2C(F)(F)F)CC1 | U2OS | collagen-induced autophosphorylation, inhibitor |  |  |  | EC50 | 86 nM |
| C#C[C@]1(OC(C)=O)CC[C@H]2[C@@H]3CCC4=CC(=NO)CC[C@@H]4[C@H]3CC[C@@]21CC (mixture of isomers) |  |  | human, fasted | 0.25 mg, single dose, reference formulation |  | Cmax, geometric mean | 0.0472 ng/mL |
| C[C@@H](Oc1cc(-c2cnn(C3CCNCC3)c2)cnc1N)c1c(Cl)ccc(F)c1Cl |  |  | human, plasma | dose not given |  | Cmax | 610 nM |
| Cn1nc(C(=O)NCc2ccc(C(=O)O)cc2)cc1-c1ccc2[nH]ccc2c1 | MMP13 | biochemical activity |  |  |  | IC50 | 26000 nM |
| C[C@H]1CNC(=O)c2cnn3ccc(nc23)N[C@H](C)c2cc(F)ccc2O1 |  |  | human, plasma | dose not given |  | Cmax | 390 nM |
| N#CC[C@H](C1CCCC1)n1cc(-c2ncnc3[nH]ccc23)cn1 | JAK | STAT3 phosphorylation | human adults | together with: thrombopoietin |  | IC50 | 281 nM |

Repeated from above (sample 3):
| Compound | activity |
| --- | --- |
| CCCC(CCC)C(=O)O | inactive |
| CN(C)CCC=C1c2ccccc2COc2ccccc21 | inactive |
| COc1cccc2c1C(=O)c1c(O)c3c(c(O)c1C2=O)C[C@@](O)(C(=O)CO)C[C@@H]3O[C@H]1C[C@H](N)[C@H](O)[C@H](C)O1 | inactive |
| CN(C)CCN(Cc1ccccc1)c1ccccn1 | inactive |
| COC(=O)C1=C(C)NC(C)=C(C(=O)OC(C)C)C1c1cccc2nonc12 (stereo not drawn) | inactive |
| Nc1nc(N)nc(-c2cc(Cl)ccc2Cl)n1 | inactive |
| COC1=C(OC)C(=O)C(CCCCCCCCCCO)=C(C)C1=O | inactive |
| CCCCNc1cc(C(=O)O)cc(S(N)(=O)=O)c1Oc1ccccc1 | inactive |
